# Experimental data collected from several papers.
# ± gives the spread as reported.
# PGR: Progesterone receptor (PGR, Homo sapiens, UniProt P06401)
# EPHX2: Bifunctional epoxide hydrolase 2 (EPHX2, Homo sapiens, UniProt P34913)
# Nr3c1: Glucocorticoid receptor (Nr3c1, Rattus norvegicus, UniProt P06536)
# CHRM2: Muscarinic acetylcholine receptor M2 (CHRM2, Homo sapiens, UniProt P08172)
SMILES,target,assay,system,conditions,how to read,measurement,result
CNc1ccccc1C(=O)O[C@H]1C[C@H](n2cnc3c(N)ncnc32)O[C@@H]1COP(=O)(O)OP(=O)(O)O,"Unconventional myosin-Va (Gallus gallus, UniProt Q02440, D297C/G292C/I296C/S293C/V295G)",van't Hoff analysis,,"concentration not given, together with: 10 mM Mg2+",,T∆S of ligand binding,0.2 ± 1.3 kcal/mol
O=c1[nH]c(N2CCC3(CC2)CN(CCO)c2cc(F)cc(F)c23)nc2c1CCCC2,"PARP1 (Homo sapiens, UniProt P09874)","inhibitor, ELISA",,up to 20 µM,,enzyme activity,no effect
CC(C)CC[C@@H](O)[C@](C)(O)[C@H]1CC[C@@]2(O)C3=CC(=O)[C@]4(O)C[C@@H](O)[C@@H](O)C[C@]4(C)C3=CC[C@]12C,"Ecdysone receptor, with ultraspiracle (EcR, Drosophila melanogaster, UniProt P34021)","photoaffinity ligand, [3H]ponasterone A binding",,"100 nM, UV irradiation 350 nm, 20 min",,covalent blocking efficiency,> 70%
Cc1cc(C(=O)Nc2nc3cccc(C)c3n2[C@H]2CCCCN(C(=O)/C=C/CN(C)C)C2)ccn1,"CDC2-like kinase 1 (Trypanosoma brucei brucei, UniProt Q382U0)","enzyme activity, time-dependent inhibitor, ADP-Glo",,,,time to IC50 plateau,~20 min
CC(=O)OC1(C(C)=O)CCC2C3C=C(CO)C4=CC(=O)CCC4(C)C3CCC21C (stereo not shown),PGR,item: E2F1,T47D,"100 nM, 8 h",baseline: ethanol vehicle,mRNA level,2 ± 0.4 fold change
N=C(N)NCCC[C@H](NC(=O)[C@H](CC(=O)O)NC(=O)[C@@H]1CSCCC(=O)NCC(=O)N[C@@H](Cc2c[nH]cn2)C(=O)N[C@H](Cc2ccccc2)C(=O)N[C@@H](CCCNC(=N)N)C(=O)N[C@@H](Cc2c[nH]c3ccccc23)C(=O)N1)C(=O)N[C@@H](Cc1ccccc1)C(=O)NCC(N)=O,"MC5R (Homo sapiens, UniProt P33032)","cAMP accumulation, agonist",HEK293 expressing MC5R,10 µM,baseline: MT-II,activation,100%
CSc1cc(C)[nH]c(=O)c1CN1CCc2c(Cl)c3c(c(C)c2C1=O)OC(C)(C1CCC(N(C)C)CC1)O3 (stereo not shown),"EZH2 (Homo sapiens, UniProt Q15910)",,,activated enzyme,,kon,1e+06 M⁻¹ s⁻¹
CC[C@H](C)[C@H](NC(=O)CNC(C)=O)C(=O)N[C@@H](CCCNC(=N)N)C(=O)N[C@@H](CCC(=O)O)C(=O)N[C@@H](C)C(=O)N[C@H](C(=O)N[C@@H](CC(C)C)C(=O)N[C@@H](CCCNC(=N)N)C(=O)N[C@@H](C)C(=O)N[C@@H](Cc1c[nH]c2ccccc12)C(=O)N[C@@H](CCC(=O)O)C(=O)N[C@@H](CCCNC(=N)N)C(=O)N[C@@H](CCCNC(=N)N)C(=O)N[C@@H](Cc1ccc(O)cc1)C(=O)NCC(N)=O)[C@@H](C)O,"Antirepressor protein CarS (carS, Myxococcus xanthus, UniProt Q06911)",ITC,,"concentration not given, pH 7.5, 25 °C",,binding enthalpy,-12 ± 0.22 kcal/mol
CC12CC3CC(C)(C1)CC(NC(=O)Nc1ccc(C(=O)N4CCCC(C(N)=O)C4)cc1Cl)(C3)C2 (stereo not shown),EPHX2,,,,,lipophilic ligand efficiency,6.56
CC(C)C[C@H](NC(=O)[C@H](N)Cc1ccc(O)cc1)C(=O)N(C)[C@@H](Cc1ccccc1)C(=O)N[C@@H](CCC(N)=O)C(=O)N1CCC[C@H]1C(=O)N[C@@H](CCC(N)=O)C(=O)N[C@@H](CCCNC(=N)N)C(=O)N[C@@H](Cc1ccccc1)C(N)=O,"NPFFR1 (Homo sapiens, UniProt Q9GZQ6)",agonist,,10 µM,baseline: maximal activation,stimulation,71%
CC1=C(/C=C/C(C)=C/C=C/C(C)=C/C=O)C(C)(C)CCC1,"CNGA1 (Bos taurus, UniProt Q00194)","ion current, inhibitor, patch clamp",,"200 nM, holding potential -50 mV, together with: cGMP 2 mM",,fast time constant of inhibition,77 s
COc1ccc(C2=[N+]3C(=C(CCCCc4cn(C[C@@H]5[C@@H](O)[C@H](O)[C@@H](O)[C@@H]6O[C@H]56)nn4)c4ccc(-c5ccc(OC)cc5)n4[B-]3(F)F)C=C2)cc1,"GBA1 (Homo sapiens, UniProt P04062, R534H)","thermal stability, tryptophan fluorescence",,"saturating, pH 5.2",,Tm increase,21.7 °C
CCCCCCCCCCCCCCCC(=O)N[C@@H](CCCCN)C(=O)N[C@@H](CCCCN)C(=O)N[C@@H](CO)C(=O)N[C@@H](CCCNC(=N)N)C(=O)N[C@@H](C)C(=O)N[C@@H](CC(C)C)C(=O)N[C@@H](Cc1ccccc1)C(N)=O,"F2R (Homo sapiens, UniProt P25116)","antagonist, light transmission aggregometry",ex vivo human platelets,"0.5 mg/kg, 14 days, together with: SFLLRN 5 µM",baseline: 24 h value,recovery of platelet aggregation,50%
C=CC(=O)N1C[C@H](C)N(c2nc(OC[C@@]34CCCN3C[C@H](F)C4)nc3c(F)c(-c4ccc(F)c5sc(N)nc45)c(C(F)(F)F)cc23)C[C@H]1C,"GTPase KRas, GDP-bound (KRAS, Homo sapiens, UniProt P01116, C118S/G12C)",MALDI-TOF MS,,"15 min, GDP-loaded",,covalent modification,> 90%
CCC(C)C(=O)NC1CCN(C(=O)c2ccc(NC(=O)NC34CC5CC(C)(CC(C)(C5)C3)C4)cc2)CC1 (stereo not shown),EPHX2,,,,,lipophilic ligand efficiency,5.63
S=C(Nc1ccc(Cl)cc1)Nc1ccc(-c2nc3ccccc3s2)cc1,"Alpha-synuclein (SNCA, Homo sapiens, UniProt P37840)","oligomerization, PICUP cross-linking",,"range 3.13 to 50 µM tested, together with: alpha-synuclein 60 µM",,effective concentration,12.5 to 50 µM
N#CCCN1CCN(C(=S)c2ccc(-c3cccc(C(F)(F)F)c3)o2)CC1,"NPR2 (Homo sapiens, UniProt P20594)","HTRF, item: cGMP",HEK293 overexpressing GC-B,together with: subthreshold CNP,baseline: saturating CNP,Emax,101%
CCSc1nc2c([nH]1)c(=S)n(C)c(=S)n2C,Nr3c1,"reporter gene, antagonist, MMTV-luciferase",T47D/A1-2,"10 µM, 24 h, together with: 5 nM dexamethasone",baseline: maximal activity,remaining activity,102%
CSCC[C@H](NC(=O)[C@H](CCCCN)NC(=O)[C@@H]1CCCN1C(=O)[C@H](CCC(=O)O)NC(=O)[C@H](CO)NC(=O)[C@H](CCCNC(=N)N)NC(=O)[C@H](C)NC(=O)[C@H](CS)NC(=O)CNC(=O)[C@@H](NC(=O)[C@@H]1CCCN1C(=O)[C@H](CC(N)=O)NC(=O)[C@@H](N)C(C)C)[C@@H](C)O)C(=O)N[C@@H](CO)C(N)=O,"WDR5 (Homo sapiens, UniProt P61964)","binding, SPR",,,,kon,490000 M⁻¹ s⁻¹
CCCCCCCC(=O)Nc1ccc(OC)nc1C,"FAAH (Homo sapiens, UniProt O00519)","enzyme activity, substrate",,"50 µM, pH 8, 37 °C",,specific activity,66 pmol/min/µg
COc1cc(C(=O)NS(=O)(=O)c2ccc(C(F)(F)F)cc2)ccc1Cc1cn(C)c2ccc(NC(=O)OC3CCCC3)cc12,"Tumor necrosis factor receptor superfamily member 1A (Homo sapiens, UniProt P19438)","TNF-induced IκB degradation, inhibitor",HEK293 cells,0.01 to 500 nM,,IκB degradation,inhibited
OCc1ccccc1S[C@@H]1O[C@H](CO)[C@H](O)[C@H](O)[C@H]1O,"SLC5A2 (Homo sapiens, UniProt P31639)","membrane depolarization, substrate, FRET",CHO expressing hSGLT2,10 µM,baseline: non-transfected CHO cells,fluorescence ratio,1.32
Cn1c(=S)c2[nH]c(SCCc3ccccc3)nc2n(C)c1=O,PGR,"reporter gene, antagonist, MMTV-luciferase",T47D/A1-2,"10 µM, 24 h, together with: 5 nM progesterone",baseline: maximal activity,remaining activity,15%
CC1(C)CCN(Cc2ccc(C(=O)NC[C@]3(O)CCCN(c4cc(NCc5ccccc5)ncn4)C3)c(O)c2)CC1,"PRDM9 (Homo sapiens, UniProt Q9NQV7)",enzyme activity,,"10 µM, together with: 1 µM SAM",,remaining activity,101%
C=CCn1c(=O)c2ccccc2n2c(SCC(=O)Nc3ccc(NC(C)=O)cc3)nnc12,CHRM2,allosteric modulator,,together with: NMS and EC80 iperoxo,,cooperativity factor,5.4
CCCCC(C)Sc1nc2c([nH]1)c(=S)n(C)c(=O)n2C (stereo not shown),Nr3c1,"reporter gene, antagonist, MMTV-luciferase",T47D/A1-2,"10 µM, 24 h, together with: 5 nM dexamethasone",baseline: maximal activity,remaining activity,105%
CC[C@H](C)[C@@H]1NC(=O)[C@H](Cc2ccccc2)NC(=O)[C@H](CCC(=O)O)NC(=O)[C@H](CCCNC(=N)N)NC(=O)CNC(=O)[C@@H](NC(=O)[C@H](CC(C)C)NC(=O)[C@H](CCCNC(=N)N)NC(=O)[C@@H](NC(=O)CNC(=O)[C@H](Cc2ccc(O)cc2)NC(=O)[C@@H]2CCCN2C(=O)[C@H](C)NC(=O)[C@H](C)NC(=O)[C@@H](N)CCCNC(=N)N)C(C)C)CSSC[C@@H]2NC(=O)[C@@H](NC(=O)[C@H](CO)NC(=O)[C@H](CO)NC(=O)[C@H](CO)NC(=O)[C@H](CC(C)C)NC(=O)CNC(=O)[C@H](C)NC(=O)[C@H](CC(C)C)NC(=O)[C@@H](NC(=O)[C@@H](N)CC(=O)O)C(C)C)CSSC[C@H](NC(=O)CNC(=O)[C@H](Cc3c[nH]c4ccccc34)NC(=O)[C@H](CCCCN)NC2=O)C(=O)N[C@@H](CO)C(=O)N[C@@H](CCCCN)C(=O)N[C@@H](CO)C(=O)N[C@@H](CCC(=O)O)C(=O)N[C@@H]([C@@H](C)CC)C(=O)N[C@@H](CO)C(=O)N[C@@H](CO)C(=O)N[C@@H](CC(C)C)C(=O)N[C@H](C(=O)O)CSSC[C@@H](C(=O)NCC(=O)NCC(=O)N[C@@H](CO)C(=O)N[C@@H](CCCNC(=N)N)C(=O)N[C@@H](Cc2c[nH]c3ccccc23)C(=O)O)NC(=O)[C@H]([C@@H](C)O)NC(=O)[C@H](Cc2ccccc2)NC(=O)[C@H]([C@@H](C)CC)NC(=O)[C@H](C(C)C)NC(=O)[C@H](C)NC(=O)[C@H](CCCNC(=N)N)NC1=O,"RXFP4 (Homo sapiens, UniProt Q8TDU9, L190A)","cAMP response, agonist",,"concentration not given, L190A mutant",baseline: wild type,potency reduction,14 fold
[3H]CC([3H])C(=O)NC1CN(CCCCC2CCN(CC(=O)N3c4ccccc4NC(=O)c4ccccc43)CC2)CCN(CCCOc2nsnc2C2=CCCN(C)C2)C1 (stereo not shown),CHRM2,binding,,,,kon,1.3e+06 M⁻¹ s⁻¹

# A few entries again:
SMILES,target,assay,system,conditions,how to read,measurement,result
N=C(N)NCCC[C@H](NC(=O)[C@H](CC(=O)O)NC(=O)[C@@H]1CSCCC(=O)NCC(=O)N[C@@H](Cc2c[nH]cn2)C(=O)N[C@H](Cc2ccccc2)C(=O)N[C@@H](CCCNC(=N)N)C(=O)N[C@@H](Cc2c[nH]c3ccccc23)C(=O)N1)C(=O)N[C@@H](Cc1ccccc1)C(=O)NCC(N)=O,"MC5R (Homo sapiens, UniProt P33032)","cAMP accumulation, agonist",HEK293 expressing MC5R,10 µM,baseline: MT-II,activation,100%
CC1=C(/C=C/C(C)=C/C=C/C(C)=C/C=O)C(C)(C)CCC1,"CNGA1 (Bos taurus, UniProt Q00194)","ion current, inhibitor, patch clamp",,"200 nM, holding potential -50 mV, together with: cGMP 2 mM",,fast time constant of inhibition,77 s
CC12CC3CC(C)(C1)CC(NC(=O)Nc1ccc(C(=O)N4CCCC(C(N)=O)C4)cc1Cl)(C3)C2 (stereo not shown),EPHX2,,,,,lipophilic ligand efficiency,6.56
